# Results collected from several papers.
# Several values in a cell are separate wells, animals, samples, runs or records. ± marks the error that the study gave.
# Sequence of UniProt O95983 (whole entry, looked up): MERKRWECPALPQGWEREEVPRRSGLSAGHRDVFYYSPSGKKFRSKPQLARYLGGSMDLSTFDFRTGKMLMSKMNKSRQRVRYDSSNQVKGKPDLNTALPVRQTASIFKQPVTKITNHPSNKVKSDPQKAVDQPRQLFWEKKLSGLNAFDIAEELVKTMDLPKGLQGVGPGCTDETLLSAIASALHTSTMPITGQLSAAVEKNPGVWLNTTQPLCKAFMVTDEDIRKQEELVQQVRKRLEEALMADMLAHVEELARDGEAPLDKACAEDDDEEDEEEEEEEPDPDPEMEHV
# Sequence of UniProt Q7L211 (whole entry, looked up): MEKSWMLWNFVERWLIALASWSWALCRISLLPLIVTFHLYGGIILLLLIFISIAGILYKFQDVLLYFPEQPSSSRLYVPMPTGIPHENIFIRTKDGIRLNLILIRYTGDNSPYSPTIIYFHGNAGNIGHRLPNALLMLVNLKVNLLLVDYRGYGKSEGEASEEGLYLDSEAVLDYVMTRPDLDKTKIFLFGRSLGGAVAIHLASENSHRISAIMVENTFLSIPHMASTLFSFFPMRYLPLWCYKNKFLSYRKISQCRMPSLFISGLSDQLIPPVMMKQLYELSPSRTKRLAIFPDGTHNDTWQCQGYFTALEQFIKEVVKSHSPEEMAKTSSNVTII
# Sequence of UniProt P25090 (whole entry, looked up): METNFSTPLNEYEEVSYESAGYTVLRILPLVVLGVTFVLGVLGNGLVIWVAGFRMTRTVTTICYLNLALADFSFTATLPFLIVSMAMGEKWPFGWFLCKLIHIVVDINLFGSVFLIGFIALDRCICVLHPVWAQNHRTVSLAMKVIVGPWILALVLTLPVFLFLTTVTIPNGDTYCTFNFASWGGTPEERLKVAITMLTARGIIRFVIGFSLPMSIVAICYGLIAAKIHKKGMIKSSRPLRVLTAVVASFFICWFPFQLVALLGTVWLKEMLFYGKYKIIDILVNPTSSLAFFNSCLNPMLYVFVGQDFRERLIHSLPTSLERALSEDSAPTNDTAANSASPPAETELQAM
# Sequence of UniProt Q08881 (whole entry, unmodified, looked up): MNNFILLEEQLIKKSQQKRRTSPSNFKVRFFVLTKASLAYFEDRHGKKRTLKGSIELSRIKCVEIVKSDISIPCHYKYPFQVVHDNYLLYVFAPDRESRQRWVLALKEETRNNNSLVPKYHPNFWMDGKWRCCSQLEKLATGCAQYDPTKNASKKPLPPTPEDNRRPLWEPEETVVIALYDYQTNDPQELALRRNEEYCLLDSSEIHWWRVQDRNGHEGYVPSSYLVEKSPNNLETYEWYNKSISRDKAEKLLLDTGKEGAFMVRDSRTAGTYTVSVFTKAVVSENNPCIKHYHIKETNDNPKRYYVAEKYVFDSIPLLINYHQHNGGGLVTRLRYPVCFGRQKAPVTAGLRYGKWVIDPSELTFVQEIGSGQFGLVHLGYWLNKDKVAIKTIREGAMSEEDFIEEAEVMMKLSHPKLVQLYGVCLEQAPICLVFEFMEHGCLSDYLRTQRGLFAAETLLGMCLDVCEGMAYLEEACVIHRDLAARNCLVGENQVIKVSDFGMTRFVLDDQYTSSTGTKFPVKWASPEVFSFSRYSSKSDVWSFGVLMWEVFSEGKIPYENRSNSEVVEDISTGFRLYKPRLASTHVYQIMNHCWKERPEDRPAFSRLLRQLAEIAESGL
Compound,tested on,test,system,setting,scale,endpoint,value
CC(C)N1CCC(NC2CCN(c3cccc(-c4cc5cc(F)ccc5[nH]4)c3)CC2)CC1,NCI-H460,,,,,GI50,956 nM
COc1c(CCC[P+](c2ccccc2)(c2ccccc2)c2ccccc2)cc2c(c1OC)OCO2.[I-],SF-539,SRB,,,,GI50,-5.68 log M
C[C@]12CC[C@H](O)C[C@H]1CC[C@@H]1[C@@H]2CC[C@]2(C)[C@@H](c3ccc(=O)oc3)CC[C@]12O,MCF7,"RT-qPCR, item: AGR2",,"50 nM, 48 h, unit not given, added: estradiol",relative to: untreated,mRNA level,0.886 and 0.735 and 0.75
COc1cc(Nc2ncc(F)c(Nc3ccc4c(n3)NC(=O)C(C)(C)O4)n2)cc(OC)c1OC,"N-formyl peptide receptor 2 (FPR2, Homo sapiens, UniProt P25090)",,,,,IC50,> 10000 nM
CC1(C)CN(CCCCC(=O)N[C@H](Cc2ccc(O)c(I)c2)C(=O)N[C@H](Cc2ccccc2)C(=O)N[C@H](CCCCNC(=O)CCCCCCC(=O)NCCCC[C@H](NC(=O)N[C@@H](CCC(=O)O)C(=O)O)C(=O)O)C(=O)O)CC[N]2CC(C)(C)[S][Tc]2(=[O])[S]1 (stereo partly drawn) [technetium-99m labelled],LNCaP,,,"25 nM, 1 h, 37 °C",,surface-bound activity,3.29 ± 0.72 %AD/mg protein
CNC(=O)Oc1cc(C)c(SC)c(C)c1,SH-SY5Y,"neurite outgrowth inhibition, phase-contrast imaging",,freely dissolved concentration,,EC10,0.391 nM
C/C=C(/C)C(=O)O[C@H]1C(C)=C2[C@H]([C@@H]1OC(=O)CCCCCCC)[C@@](C)(OC(C)=O)C[C@H](OC(=O)CCC)[C@@]1(O)[C@H]2OC(=O)[C@@]1(C)O,HEK293T,"RNA-seq, item: HSPA1A mRNA",,"10 µM, 6 h",relative to: vehicle,log2 fold change,-2.06
O=C(c1ccc(Cl)cc1)N1CCN2C(=O)N(OC(=O)N3CCOc4ccccc43)C(=O)C2C1 (stereo not drawn),"Protein ABHD13 (ABHD13, Homo sapiens, UniProt Q7L211)","enzyme activity, inhibitor, MS-based ABPP",SW-620 in situ,"10 µM, 2 h, 37 °C","relative to: compound over DMSO, lower = stronger inhibition",median ratio,1.24
O=c1cc(-c2ccccc2)oc2c(O)c(O)ccc12,"SH-SY5Y Aβ-GFP cells, TRKB shRNA",,,5 µM,,neurite process number,3.3
Cn1nccc1Nc1nccc(-c2ccn([C@H](CO)c3ccc(Cl)c(F)c3)c(=O)c2)n1,HCT116,IncuCyte,,"concentration not given, 28 (unit not given)",,PI-positive cells,5.58 count and 7.58 count and 8 count
N#Cc1nn(-c2c(Cl)cc(C(F)(F)F)cc2Cl)c(N)c1[S+]([O-])C(F)(F)F (stereo not drawn),hiPSC glutamatergic neurons,"burst frequency, multi-electrode array",,2 h,,lowest effective concentration,1 µM
COc1cc2c(Oc3ccc4[nH]c(C)cc4c3F)ccnc2cc1OCC1(N)CC1,,,paediatric recurrent refractory sarcoma,12 mg,,grade 1 or 2 hand-foot syndrome,45.5%
Cc1cc(C(C)(C)c2ccc(O)c(C)c2)ccc1O,HepG2 spheroids,Hoechst flow cytometry,,"0.10 µM, 96 h",,G2 phase cells,21.7 ± 1.17%
CC[C@H](C)[C@H](NC(=O)[C@H](Cc1ccccc1)NC(=O)[C@H](CCC(=O)O)NC(=O)[C@H](CCCNC(=N)N)NC(=O)[C@H](C)NC(=O)[C@H](C)NC(=O)[C@H](CCC(N)=O)NC(=O)[C@H](CCC(=O)O)NC(=O)[C@H](CCC(=O)O)NC(=O)[C@H](CC(C)C)NC(=O)[C@H](Cc1ccc(O)cc1)NC(=O)[C@H](CO)NC(=O)[C@H](CO)NC(=O)[C@@H](NC(=O)[C@H](CC(=O)O)NC(=O)[C@H](CO)NC(=O)[C@@H](NC(=O)[C@H](Cc1ccccc1)NC(=O)[C@@H](NC(=O)CNC(=O)[C@H](CCC(=O)O)NC(=O)[C@H](C)NC(=O)CCc1c[nH]cn1)[C@@H](C)O)[C@@H](C)O)C(C)C)C(=O)N[C@@H](C)C(=O)N[C@@H](Cc1c[nH]c2ccccc12)C(=O)N[C@@H](CC(C)C)C(=O)N[C@H](C(=O)N[C@@H](CCCNC(=N)N)C(=O)NCC(=O)N[C@@H](CCCNC(=N)N)C(=O)N[C@@H](CCCCNC(=O)COCCOCCNC(=O)COCCOCCNC(=O)CC[C@H](NC(=O)CCCCCCCCCCCCCCCCC(=O)O)C(=O)O)C(=O)NCC(=O)NCC(=O)N[C@@H](CO)C(=O)N[C@@H](CCCCNc1c(NCCCCCN(O)C(=O)CCC(=O)NCCCCCN(O)C(=O)CCC(=O)NCCCCCN(O)C(C)=O)c(=O)c1=O)C(=O)O)C(C)C [zirconium-89 labelled],,,"rat, intestine content","intravenous, 3 nmol/kg, 168 h",,tissue uptake,0.03 %ID/g
C[C@H]1CN(c2n[nH]c3nc(N[C@H]4CC[C@H](NS(=O)(=O)CCC(F)(F)F)CC4)ncc23)CCO1,"Methyl-CpG-binding domain protein 3 (MBD3, Homo sapiens, UniProt O95983)","Kinobeads competition, item: MBD3",,"0.16 µM, unit not given",relative to: vehicle,remaining binding,1.08
O=C1CCP(=S)(c2ccccc2)CC1,SW480,annexin V/PI flow cytometry,,"IC50, 72 h",,early apoptotic cells,0.9%
Nc1ncnc2c1ncn2[C@@H]1O[C@@H]2COP(=O)(O)O[C@H]3[C@@H](O)[C@H](n4cnc5c(=O)[nH]cnc54)O[C@@H]3COP(=O)(O)O[C@H]2[C@H]1O,HFF-1,"RNA sequencing, item: Reactome peptide ligand-binding receptors",,upregulated pathways,relative to: mock,fold enrichment,3.77
CC[C@H](C)[C@H](NC(=O)[C@H](C)NC(=O)[C@H](CCCCN)NC(=O)[C@H](CC(C)C)NC(=O)[C@H](C)NC(=O)[C@@H](NC(=O)[C@H](Cc1c[nH]cn1)NC(=O)[C@H](CC(C)C)NC(=O)[C@@H](NC(=O)[C@@H](NC(=O)[C@H](CCCCN)NC(=O)[C@H](C)NC(=O)[C@H](C)NC(=O)[C@H](CO)NC(=O)[C@H](CCCCN)NC(=O)[C@H](Cc1ccccc1)NC(=O)[C@@H](NC(=O)[C@H](CCCCN)NC(=O)[C@H](CC(C)C)NC(=O)[C@H](Cc1ccccc1)NC(=O)[C@H](CO)NC(=O)[C@H](CCCCN)NC(=O)[C@H](Cc1c[nH]c2ccccc12)NC(=O)[C@H](CCCCN)NC(C)=O)[C@@H](C)O)[C@@H](C)O)C(C)C)[C@@H](C)O)C(=O)N[C@@H](CO)C(=O)N[C@@H](CO)C(N)=O,Acinetobacter baumannii,,IPM-S,33 strains,,MIC90,8 µg/mL
Cc1nn(-c2nc3c(F)cc(F)cc3s2)c(O)c1C(c1ccc(C(F)(F)F)cc1)c1c(C)nn(-c2nc3c(F)cc(F)cc3s2)c1O,RAW-ISG,CCK-8,,12.5 µM,,viability,95.7% and 101% and 112% and 105%
COc1ccc(N2C(=O)N(c3c(C)cccc3Cl)Cc3cnc(Nc4ccc(C5CCN(C)CC5)cc4OC)nc32)nc1,"Tyrosine-protein kinase ITK/TSK (ITK, Homo sapiens, UniProt Q08881)",kinase activity,,0.5 µM,,inhibition,0.445%
COc1ccc2c(c1)[nH]c1c(C)nccc12,DU-145,"bisulfite pyrosequencing, item: RASSF1A promoter CpG site 29",,"10 µM, 16 h",,DNA methylation,95.8%
COc1cc(CCC[P+](c2ccccc2)(c2ccccc2)c2ccccc2)c(OC)c2c1OCO2.[I-],SF-268,SRB,,,,TGI,-4.88 log M
O=c1c(O)c(-c2ccc(O)c(O)c2)oc2cc(O)cc(O)c12,"SH-SY5Y Aβ-GFP cells, TRKB shRNA",,,5 µM,,neurite branch number,1.3 to 1.5
CC1=C2C[C@H]3[C@@H](CC[C@@H]4C[C@H](NS(C)(=O)=O)CC[C@@]43C)[C@@H]2CC[C@@]2(C1)O[C@@H]1C[C@H](C)CN[C@H]1[C@H]2C,HD-MB03,,,added: ribociclib 5 µM,relative to: ribociclib over DMSO,fold change in IC50,0.993
CC[C@H](C)[C@@H]1NC(=O)[C@@H]2CCCN2C(=O)[C@H](CC(C)C)NC(=O)[C@H](CC(C)C)NC(=O)CNC(=O)[C@@H](NC(=O)[C@@H](NC(=O)[C@H](CC(=O)O)NC(=O)CNC(=O)[C@@H](NC(=O)[C@H](C)NC(=O)CNC(=O)[C@H](CCCCN)NC(=O)[C@H](CC(C)C)NC(=O)[C@H](CC(C)C)NC(=O)[C@H](CCCCN)NC(=O)CNC(=O)[C@@H](NC(=O)[C@@H](N)CC(C)C)C(C)C)C(C)C)C(C)C)CSSC[C@@H](C(=O)O)NC1=O,,"RNA-seq, item: Rab25","mouse, traumatic brain injury model, frontal cortex and hippocampus",dose not given,relative to: TBI alone,log2 fold change,-4.84
C[C@@H](O)[C@@H](CO)NC(=O)[C@@H](CCCNC(=N)N)NC(=O)[C@@H]1CCCN1C(=O)[C@@H]1CSSC[C@H](NC(=O)[C@H](Cc2ccccc2)NC(=O)CN2CCN(CC(=O)O)CCN(CC(=O)O)CCN(CC(=O)O)CC2)C(=O)N[C@@H](Cc2ccc(O)cc2)C(=O)N[C@@H](Cc2ccccc2)C(=O)N[C@@H](CCC(N)=O)C(=O)N[C@@H](CC(N)=O)C(=O)N1 [gallium-68 labelled],,,"healthy Wistar rat, liver","intravenous, 8 MBq, 30 min, individual animals",,tissue uptake,0.46 %ID/g
CO[C@H]1C[C@@H]2CC[C@@H](C)[C@@](O)(O2)C(=O)C(=O)N2CCCC[C@H]2C(=O)O[C@H]([C@H](C)C[C@@H]2CC[C@@H](OC(=O)NCCOCCOCCOCCOCCOCCOCCOCCOCCC(=O)N3CCc4cc(Cn5nc(-c6ccc7oc(N)nc7c6)c6c(N)ncnc65)ccc4C3)[C@H](OC)C2)C[C@@H](O)[C@H](C)/C=C(\C)[C@@H](O)[C@@H](OC)C(=O)[C@H](C)C[C@H](C)/C=C/C=C/C=C/1C,,phase 1 dose escalation,advanced solid tumour patients,"intravenous, 6 mg weekly, grade ≥3",,any TEAE incidence,66.7%
C[C@]12CC[C@H](O)C[C@H]1CC[C@@H]1[C@@H]2CC[C@]2(C)[C@@H](C3=CC(=O)OC3)[C@@H](O)C[C@]12O,MYBPC3 iPSC cardiomyocytes,plate-normalised,,"concentration not given, 24 h, hit retest",,MyBP-C level,25.6%
Oc1ccc(C2(c3ccc(O)cc3)c3ccccc3-c3ccccc32)cc1,HepG2 spheroids,Hoechst flow cytometry,,"1 µM, 24 h",,G1 phase cells,71 ± 2.43%
COc1c(C)c2c(c(O)c1C/C=C(\C)CCC(=O)O)C(=O)OC2,LoVo,cell proliferation,colon cancer,,,IC50,490 nM
